Experimental data collected from several papers.
Numbered parts are unrelated; each lists some results of a single study.
UniProt P42336, sequence (whole entry, looked up): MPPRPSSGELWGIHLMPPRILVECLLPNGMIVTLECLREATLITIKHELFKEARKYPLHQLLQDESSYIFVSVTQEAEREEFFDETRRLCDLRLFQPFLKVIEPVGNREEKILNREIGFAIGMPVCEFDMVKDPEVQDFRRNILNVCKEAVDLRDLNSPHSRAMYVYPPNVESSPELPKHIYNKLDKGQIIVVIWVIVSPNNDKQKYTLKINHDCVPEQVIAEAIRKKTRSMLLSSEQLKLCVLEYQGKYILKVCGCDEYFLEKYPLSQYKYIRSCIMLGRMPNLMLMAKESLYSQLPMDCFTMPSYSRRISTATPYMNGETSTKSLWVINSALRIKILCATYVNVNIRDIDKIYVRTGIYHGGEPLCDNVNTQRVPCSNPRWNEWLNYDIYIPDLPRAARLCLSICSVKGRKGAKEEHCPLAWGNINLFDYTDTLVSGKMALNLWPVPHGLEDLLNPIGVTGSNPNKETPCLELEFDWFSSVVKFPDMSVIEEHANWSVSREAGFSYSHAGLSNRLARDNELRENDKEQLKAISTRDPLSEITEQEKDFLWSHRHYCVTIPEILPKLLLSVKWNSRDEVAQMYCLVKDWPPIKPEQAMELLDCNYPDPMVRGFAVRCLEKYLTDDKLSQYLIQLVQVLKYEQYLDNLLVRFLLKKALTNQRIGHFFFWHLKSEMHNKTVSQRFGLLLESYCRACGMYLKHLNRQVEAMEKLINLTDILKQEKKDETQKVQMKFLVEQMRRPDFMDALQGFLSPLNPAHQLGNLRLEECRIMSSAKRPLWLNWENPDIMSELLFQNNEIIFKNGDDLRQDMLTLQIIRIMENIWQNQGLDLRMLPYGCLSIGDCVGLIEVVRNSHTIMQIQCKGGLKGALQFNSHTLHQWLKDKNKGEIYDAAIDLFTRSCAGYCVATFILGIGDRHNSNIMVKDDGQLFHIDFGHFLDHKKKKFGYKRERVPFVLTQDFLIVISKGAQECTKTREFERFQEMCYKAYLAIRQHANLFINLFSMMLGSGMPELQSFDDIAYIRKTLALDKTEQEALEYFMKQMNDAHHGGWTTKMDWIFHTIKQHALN
UniProt O95747, sequence (whole entry, looked up): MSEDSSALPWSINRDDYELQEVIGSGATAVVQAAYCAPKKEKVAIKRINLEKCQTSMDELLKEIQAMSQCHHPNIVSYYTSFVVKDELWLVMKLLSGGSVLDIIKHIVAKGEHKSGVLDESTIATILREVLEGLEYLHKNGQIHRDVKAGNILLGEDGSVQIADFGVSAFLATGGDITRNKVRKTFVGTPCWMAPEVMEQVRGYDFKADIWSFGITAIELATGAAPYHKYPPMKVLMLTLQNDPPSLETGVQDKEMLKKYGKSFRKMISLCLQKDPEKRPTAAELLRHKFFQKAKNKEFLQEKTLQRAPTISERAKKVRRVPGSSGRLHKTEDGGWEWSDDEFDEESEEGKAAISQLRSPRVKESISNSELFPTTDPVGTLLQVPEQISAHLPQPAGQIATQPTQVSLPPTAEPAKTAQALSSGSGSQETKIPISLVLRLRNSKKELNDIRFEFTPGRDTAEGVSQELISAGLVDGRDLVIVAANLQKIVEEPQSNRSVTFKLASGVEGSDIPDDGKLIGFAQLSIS
UniProt Q9Y2H9, sequence (whole entry, looked up): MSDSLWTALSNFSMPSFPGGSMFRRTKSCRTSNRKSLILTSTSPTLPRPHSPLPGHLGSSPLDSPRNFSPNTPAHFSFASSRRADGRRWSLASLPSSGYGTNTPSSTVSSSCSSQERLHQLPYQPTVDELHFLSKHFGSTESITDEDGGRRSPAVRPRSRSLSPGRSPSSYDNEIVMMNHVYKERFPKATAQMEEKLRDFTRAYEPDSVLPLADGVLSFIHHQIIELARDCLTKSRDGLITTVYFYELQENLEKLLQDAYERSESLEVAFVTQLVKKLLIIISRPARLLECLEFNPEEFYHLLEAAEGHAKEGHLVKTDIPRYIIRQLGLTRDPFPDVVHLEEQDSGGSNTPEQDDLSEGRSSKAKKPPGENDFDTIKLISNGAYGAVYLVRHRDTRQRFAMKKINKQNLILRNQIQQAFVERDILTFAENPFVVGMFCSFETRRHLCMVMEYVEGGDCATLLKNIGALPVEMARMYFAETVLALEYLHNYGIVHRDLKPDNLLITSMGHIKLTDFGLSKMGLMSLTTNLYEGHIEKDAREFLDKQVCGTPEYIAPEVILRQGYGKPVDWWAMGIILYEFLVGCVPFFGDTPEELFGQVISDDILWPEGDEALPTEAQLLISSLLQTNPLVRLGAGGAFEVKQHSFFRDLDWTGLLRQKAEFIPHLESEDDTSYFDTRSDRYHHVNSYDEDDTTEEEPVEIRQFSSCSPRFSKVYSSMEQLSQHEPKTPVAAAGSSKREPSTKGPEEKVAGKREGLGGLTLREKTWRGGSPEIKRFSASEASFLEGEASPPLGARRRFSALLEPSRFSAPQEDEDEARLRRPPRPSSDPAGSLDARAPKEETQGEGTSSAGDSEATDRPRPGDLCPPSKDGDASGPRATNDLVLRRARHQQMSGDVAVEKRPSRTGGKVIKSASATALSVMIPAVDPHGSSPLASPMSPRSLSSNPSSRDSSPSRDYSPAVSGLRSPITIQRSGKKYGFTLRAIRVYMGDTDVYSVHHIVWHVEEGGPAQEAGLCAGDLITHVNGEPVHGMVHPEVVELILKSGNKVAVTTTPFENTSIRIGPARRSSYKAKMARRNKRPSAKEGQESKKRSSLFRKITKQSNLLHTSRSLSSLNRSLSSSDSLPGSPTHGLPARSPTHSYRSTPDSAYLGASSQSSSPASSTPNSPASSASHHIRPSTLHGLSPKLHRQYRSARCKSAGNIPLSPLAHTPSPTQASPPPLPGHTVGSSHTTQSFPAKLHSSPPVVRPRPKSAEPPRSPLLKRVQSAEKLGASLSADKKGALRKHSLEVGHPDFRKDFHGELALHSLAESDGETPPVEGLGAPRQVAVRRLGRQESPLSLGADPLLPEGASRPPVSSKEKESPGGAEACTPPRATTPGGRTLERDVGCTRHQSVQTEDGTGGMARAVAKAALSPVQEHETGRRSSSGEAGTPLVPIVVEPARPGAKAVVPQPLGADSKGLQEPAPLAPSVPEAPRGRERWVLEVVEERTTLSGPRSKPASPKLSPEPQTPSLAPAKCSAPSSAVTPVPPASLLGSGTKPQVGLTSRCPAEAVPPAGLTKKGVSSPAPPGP
UniProt Q06187, sequence (whole entry, looked up): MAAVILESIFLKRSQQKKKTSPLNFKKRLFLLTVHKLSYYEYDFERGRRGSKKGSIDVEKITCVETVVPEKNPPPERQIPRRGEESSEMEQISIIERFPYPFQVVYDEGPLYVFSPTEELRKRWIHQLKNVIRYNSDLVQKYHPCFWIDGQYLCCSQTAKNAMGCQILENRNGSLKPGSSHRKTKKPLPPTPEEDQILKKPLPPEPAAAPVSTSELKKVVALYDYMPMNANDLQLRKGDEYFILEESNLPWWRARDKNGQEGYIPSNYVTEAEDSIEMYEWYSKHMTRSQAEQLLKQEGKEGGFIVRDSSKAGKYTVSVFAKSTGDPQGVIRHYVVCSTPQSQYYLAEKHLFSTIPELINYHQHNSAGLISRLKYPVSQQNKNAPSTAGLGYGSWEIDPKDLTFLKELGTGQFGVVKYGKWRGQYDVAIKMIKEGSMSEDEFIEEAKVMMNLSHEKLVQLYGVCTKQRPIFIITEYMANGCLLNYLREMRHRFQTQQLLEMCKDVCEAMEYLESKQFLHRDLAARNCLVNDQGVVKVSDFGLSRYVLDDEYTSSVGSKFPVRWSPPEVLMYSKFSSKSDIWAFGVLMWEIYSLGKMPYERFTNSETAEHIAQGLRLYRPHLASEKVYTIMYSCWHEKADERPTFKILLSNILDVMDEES
UniProt P29320, sequence (whole entry, looked up): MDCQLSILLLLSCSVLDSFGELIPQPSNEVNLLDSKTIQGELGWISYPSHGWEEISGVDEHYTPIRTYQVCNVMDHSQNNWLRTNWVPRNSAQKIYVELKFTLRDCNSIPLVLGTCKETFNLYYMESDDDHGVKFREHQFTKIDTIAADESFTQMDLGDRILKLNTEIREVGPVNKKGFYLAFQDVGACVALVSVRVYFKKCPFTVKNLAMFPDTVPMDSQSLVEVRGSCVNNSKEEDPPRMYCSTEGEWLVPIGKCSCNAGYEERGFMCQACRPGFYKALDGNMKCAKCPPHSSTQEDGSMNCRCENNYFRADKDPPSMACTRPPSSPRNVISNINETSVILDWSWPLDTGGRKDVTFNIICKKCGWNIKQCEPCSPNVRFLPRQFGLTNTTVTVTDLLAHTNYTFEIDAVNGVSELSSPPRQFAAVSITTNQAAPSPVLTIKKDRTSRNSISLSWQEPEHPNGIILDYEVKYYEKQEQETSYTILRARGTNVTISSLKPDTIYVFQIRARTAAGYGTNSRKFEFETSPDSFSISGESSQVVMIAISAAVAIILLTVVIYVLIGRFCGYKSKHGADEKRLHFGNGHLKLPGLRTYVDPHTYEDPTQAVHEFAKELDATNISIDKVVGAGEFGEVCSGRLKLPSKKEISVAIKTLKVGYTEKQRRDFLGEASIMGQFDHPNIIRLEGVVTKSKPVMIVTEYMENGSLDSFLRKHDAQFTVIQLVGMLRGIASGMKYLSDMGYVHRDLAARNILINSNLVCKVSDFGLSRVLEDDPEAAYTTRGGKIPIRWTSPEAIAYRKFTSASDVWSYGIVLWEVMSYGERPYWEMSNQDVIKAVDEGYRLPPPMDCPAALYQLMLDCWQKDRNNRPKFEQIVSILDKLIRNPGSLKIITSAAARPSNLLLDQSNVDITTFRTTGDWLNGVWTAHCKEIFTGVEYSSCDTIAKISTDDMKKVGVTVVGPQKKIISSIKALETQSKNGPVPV

Block 1
SMILES: CN(C)CC#Cc1ccc(OCCCc2sc(N3CCc4cccc(C(=O)Nc5nc6ccccc6s5)c4C3)nc2C(=O)O)c(F)c1
Method: competition with immobilised ligand
Tested at: 1 µM
Tyrosine-protein kinase ABL1, phosphorylated (ABL1, Homo sapiens, UniProt P00519, E255K); binding — remaining binding: 85%.
It gave 80% for remaining binding (Serine/threonine-protein kinase 26 (STK26, Homo sapiens, UniProt Q9P289); cell-free assay).
The remaining binding was 86% (Serine/threonine-protein kinase OSR1 (OXSR1, Homo sapiens, UniProt O95747); cell-free assay).
Serine/threonine-protein kinase WNK2 (WNK2, Homo sapiens, UniProt Q9Y3S1); cell-free assay — remaining binding: 96%.
The remaining binding was 91% (Ephrin type-A receptor 3 (EPHA3, Homo sapiens, UniProt P29320); cell-free assay).
The remaining binding was 89% (Mitogen-activated protein kinase 12 (MAPK12, Homo sapiens, UniProt P53778); cell-free assay).
The remaining binding was 92% (G protein-coupled receptor kinase 3 (GRK3, Homo sapiens, UniProt P35626); cell-free assay).
The remaining binding was 90% (Ribosomal protein S6 kinase alpha-5, N-terminal kinase domain (RPS6KA5, Homo sapiens, UniProt O75582); cell-free assay).
For Microtubule-associated serine/threonine-protein kinase 1 (MAST1, Homo sapiens, UniProt Q9Y2H9); cell-free assay: remaining binding read 89%.
For Serine/threonine-protein kinase Nek9 (NEK9, Homo sapiens, UniProt Q8TD19); cell-free assay: remaining binding read 95%.
Peripheral plasma membrane protein CASK (CASK, Homo sapiens, UniProt O14936); cell-free assay — remaining binding: 100%.
It gave 89% for remaining binding (Phosphatidylinositol 4,5-bisphosphate 3-kinase catalytic subunit alpha isoform (PIK3CA, Homo sapiens, UniProt P42336); cell-free assay).
The remaining binding was 84% (Serine/threonine-protein kinase D2 (PRKD2, Homo sapiens, UniProt Q9BZL6); cell-free assay).

Block 2
Target: Sox, HMG box (Pigoraptor chileana)
Method: Spec-seq
Form: double-stranded DNA, one strand shown
Sample: in vitro
Tested at: not given
Notes: whole probe, mean of replicates
Relative to: not given
Direction: lower = stronger binding
All sequences stand within: GAGTCGTCTCGTCAGCAC … CCGTAGAGCACTCAGGTC
Target sequence (chain): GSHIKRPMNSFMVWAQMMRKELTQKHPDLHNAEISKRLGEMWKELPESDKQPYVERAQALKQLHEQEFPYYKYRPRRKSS
`TGCGGTT` — result for “relative binding energy”: 0.543 ln ratio.
For `GCTCGTT`, “relative binding energy” read 1.18 ln ratio.
`CTTAGTT` — result for “relative binding energy”: 0.141 ln ratio.
`CATCGCA`: “relative binding energy” 0.633 ln ratio.
`CATAGAA`: “relative binding energy” -0.697 ln ratio.
`GTCCGTT`: “relative binding energy” 1.27 ln ratio.
Under “relative binding energy”, `CTAGGTT` is recorded as 0.926 ln ratio.
Under “relative binding energy”, `CATTTTC` is recorded as 0.394 ln ratio.

Block 3
Target: Interferon regulatory factor 5, full length, phosphomimetic (IRF5, Homo sapiens, UniProt Q13568-2, residues 1-514, K96S/S451D/S453D/S456D/S462D)
Method: protein-binding microarray
Form: double-stranded DNA, one strand shown
Sample: in vitro
Tested at: 250 nM
Notes: 60-bp whole probe
With: salmon DNA 0.4 mg/ml
Relative to: random background probes
Direction: higher = stronger binding
All sequences stand within: GCCTAGCAC … GTCTTGATTCGCTTGACGCTGCTG
The log fluorescence of `GACGGTCCCGGTCTCGGGACGTGCTAG` is reported as -0.231 z-score.
For `TCCATTTTGTGTTTTCATTTGTGCTAG`, the log fluorescence was 1.84 z-score.
With `TTAGGACTGGACTTTCGGCTAGTGCTA` the log fluorescence was 6.27 z-score.
`TTAGGTATCGGGTTTCGATTAGTGCTA` has a log fluorescence of 7.66 z-score.
For `TTAGGTATTGACTTTCGGTTAGTGCTA`, the log fluorescence was 9.31 z-score.
The log fluorescence of `TCATTTATGCACTCTCTAACTGTGCTA` is reported as 0.585 z-score.
The log fluorescence of `TTAGGACTGGGATATCGGTTAGTGCTA` is reported as 0.96 z-score.
`GACGGTATTGGGTATCGGGACGTGCTA` has a log fluorescence of 0.764 z-score.

Block 4
Structure (SMILES): O=Nc1c(-c2c(O)[nH]c3ccccc23)[nH]c2ccccc12
Effect on: enzyme activity
Action: inhibitor
Tested at: 0.5 µM
Relative to: control
Mitogen-activated protein kinase kinase kinase 10 (MAP3K10, Homo sapiens, UniProt Q02779) — remaining activity: 95.2%.
RAC-gamma serine/threonine-protein kinase (AKT3, Homo sapiens, UniProt Q9Y243) — remaining activity: 98.8%.
For Serine/threonine-protein kinase Nek4 (NEK4, Homo sapiens, UniProt P51957): remaining activity read 95%.
It gave 59.3% for remaining activity (Tyrosine-protein kinase BTK (BTK, Homo sapiens, UniProt Q06187)).
For Serine/threonine-protein kinase Chk1 (CHEK1, Homo sapiens, UniProt O14757): remaining activity read 65.3%.
Interleukin-1 receptor-associated kinase 4 (IRAK4, Homo sapiens, UniProt Q9NWZ3) — remaining activity: 102%.
Dual specificity mitogen-activated protein kinase kinase 6 (MAP2K6, Homo sapiens, UniProt P52564) — remaining activity: 83.5%.
For Mitogen-activated protein kinase kinase kinase kinase 2 (MAP4K2, Homo sapiens, UniProt Q12851): remaining activity read 57.3%.
It gave 73.2% for remaining activity (Mast/stem cell growth factor receptor Kit (KIT, Homo sapiens, UniProt P10721)).
Ephrin type-A receptor 5 (EPHA5, Homo sapiens, UniProt P54756) — remaining activity: 86.5%.
Tyrosine-protein kinase Lyn (LYN, Homo sapiens, UniProt P07948) — remaining activity: 64.6%.
MAP kinase-interacting serine/threonine-protein kinase 2 (MKNK2, Homo sapiens, UniProt Q9HBH9) — remaining activity: 82.1%.
Leucine-rich repeat serine/threonine-protein kinase 2 (LRRK2, Homo sapiens, UniProt Q5S007) — remaining activity: 91.6%.
It gave 105% for remaining activity (Mitogen-activated protein kinase 13 (MAPK13, Homo sapiens, UniProt O15264)).

For quick reference, copied from above (block 3):
`TTAGGTATCGGGTTTCGATTAGTGCTA` has a log fluorescence of 7.66 z-score.
For `TTAGGTATTGACTTTCGGTTAGTGCTA`, the log fluorescence was 9.31 z-score.
The log fluorescence of `TCATTTATGCACTCTCTAACTGTGCTA` is reported as 0.585 z-score.
The log fluorescence of `TTAGGACTGGGATATCGGTTAGTGCTA` is reported as 0.96 z-score.
